Results gathered from unrelated publications.
Each numbered part is a random draw from the data of one study; scales do not carry over between parts.
Sequence of UniProt Q01959 (whole entry, looked up): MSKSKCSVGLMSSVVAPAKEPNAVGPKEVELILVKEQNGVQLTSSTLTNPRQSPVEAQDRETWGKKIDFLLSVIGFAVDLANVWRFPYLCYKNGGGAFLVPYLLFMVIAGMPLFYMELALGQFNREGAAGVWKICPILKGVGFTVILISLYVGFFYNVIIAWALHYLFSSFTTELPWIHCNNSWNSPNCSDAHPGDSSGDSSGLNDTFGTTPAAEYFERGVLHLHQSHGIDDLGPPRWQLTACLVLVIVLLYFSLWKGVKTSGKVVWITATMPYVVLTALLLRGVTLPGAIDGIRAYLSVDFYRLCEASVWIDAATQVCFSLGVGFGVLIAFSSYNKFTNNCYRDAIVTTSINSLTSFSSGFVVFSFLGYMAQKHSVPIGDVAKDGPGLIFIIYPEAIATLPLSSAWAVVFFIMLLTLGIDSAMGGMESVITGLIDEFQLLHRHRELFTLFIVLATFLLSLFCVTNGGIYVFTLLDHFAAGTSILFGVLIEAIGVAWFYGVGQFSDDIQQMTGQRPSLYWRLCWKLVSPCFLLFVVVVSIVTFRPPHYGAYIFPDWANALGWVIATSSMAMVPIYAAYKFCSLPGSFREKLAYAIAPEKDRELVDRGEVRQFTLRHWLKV
Sequence of UniProt P41145 (whole entry, looked up): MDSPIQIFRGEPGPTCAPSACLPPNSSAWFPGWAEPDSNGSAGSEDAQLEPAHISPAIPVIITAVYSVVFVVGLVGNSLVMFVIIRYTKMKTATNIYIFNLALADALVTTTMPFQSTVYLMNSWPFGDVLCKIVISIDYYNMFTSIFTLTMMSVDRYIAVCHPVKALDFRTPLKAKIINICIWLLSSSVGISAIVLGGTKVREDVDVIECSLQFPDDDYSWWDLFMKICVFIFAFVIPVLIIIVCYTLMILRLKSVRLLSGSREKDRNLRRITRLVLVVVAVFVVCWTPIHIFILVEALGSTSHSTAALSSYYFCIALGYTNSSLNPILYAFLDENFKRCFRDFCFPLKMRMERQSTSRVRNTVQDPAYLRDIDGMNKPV
Sequence of UniProt P23975 (whole entry, looked up): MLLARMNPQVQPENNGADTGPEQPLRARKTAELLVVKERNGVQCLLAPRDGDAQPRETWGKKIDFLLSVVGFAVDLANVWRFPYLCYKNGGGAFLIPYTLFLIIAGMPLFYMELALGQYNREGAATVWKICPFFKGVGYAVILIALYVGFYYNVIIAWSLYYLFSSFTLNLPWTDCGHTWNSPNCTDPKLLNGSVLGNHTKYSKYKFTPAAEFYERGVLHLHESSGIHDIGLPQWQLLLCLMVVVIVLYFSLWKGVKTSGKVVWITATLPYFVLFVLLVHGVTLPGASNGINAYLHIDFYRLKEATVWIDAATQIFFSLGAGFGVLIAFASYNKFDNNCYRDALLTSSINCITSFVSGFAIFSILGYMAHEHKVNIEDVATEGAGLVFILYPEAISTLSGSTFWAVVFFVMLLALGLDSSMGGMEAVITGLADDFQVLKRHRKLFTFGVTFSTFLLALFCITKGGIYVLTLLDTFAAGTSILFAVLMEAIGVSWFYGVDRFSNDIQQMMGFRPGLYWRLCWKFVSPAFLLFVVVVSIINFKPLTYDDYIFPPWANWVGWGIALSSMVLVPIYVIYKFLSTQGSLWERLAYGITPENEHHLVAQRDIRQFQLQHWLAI
Sequence of UniProt P11229 (whole entry, looked up): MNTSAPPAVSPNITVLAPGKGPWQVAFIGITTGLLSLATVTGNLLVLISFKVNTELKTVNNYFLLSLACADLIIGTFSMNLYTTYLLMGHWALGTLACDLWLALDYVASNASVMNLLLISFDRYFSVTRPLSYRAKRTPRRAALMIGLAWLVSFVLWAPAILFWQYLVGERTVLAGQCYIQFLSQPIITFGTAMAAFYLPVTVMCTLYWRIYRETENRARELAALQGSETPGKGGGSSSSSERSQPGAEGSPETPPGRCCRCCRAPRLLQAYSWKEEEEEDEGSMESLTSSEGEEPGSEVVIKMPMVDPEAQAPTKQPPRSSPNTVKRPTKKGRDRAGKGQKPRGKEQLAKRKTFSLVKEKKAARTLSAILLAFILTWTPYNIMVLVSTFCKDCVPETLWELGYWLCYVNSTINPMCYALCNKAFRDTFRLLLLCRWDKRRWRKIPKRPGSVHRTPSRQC

Series 1 — read-out: AlphaScreen signal; technique: AlphaScreen counter screen; sample: His6 peptide without bromodomain; concentration: 50 µM; notes: assay interference check; quantity: inhibition
Nc1nc(N2CCNCC2)c2nc[nH]c2n1: 7.6%
Cc1cccc(NC=C2C(=O)NC(=O)N(c3ccccc3)C2=O)c1: -3.6%
COc1ccc(N2C(=O)NC(=O)C(=CNc3ccc(F)cc3)C2=O)cc1: 1.05%
COc1cc(C2=C(c3c[nH]c4ccccc34)C(=O)NC2=O)cc(OC)c1OC: 57.9%

Series 2 — read-out: enzyme activity; mode: inhibitor; concentration: 10 µM; quantity: inhibition
Target: Calcium/calmodulin-dependent protein kinase type II subunit alpha (CAMK2A, Homo sapiens, UniProt Q9UQM7)
Sequence of UniProt Q9UQM7 (whole entry, looked up): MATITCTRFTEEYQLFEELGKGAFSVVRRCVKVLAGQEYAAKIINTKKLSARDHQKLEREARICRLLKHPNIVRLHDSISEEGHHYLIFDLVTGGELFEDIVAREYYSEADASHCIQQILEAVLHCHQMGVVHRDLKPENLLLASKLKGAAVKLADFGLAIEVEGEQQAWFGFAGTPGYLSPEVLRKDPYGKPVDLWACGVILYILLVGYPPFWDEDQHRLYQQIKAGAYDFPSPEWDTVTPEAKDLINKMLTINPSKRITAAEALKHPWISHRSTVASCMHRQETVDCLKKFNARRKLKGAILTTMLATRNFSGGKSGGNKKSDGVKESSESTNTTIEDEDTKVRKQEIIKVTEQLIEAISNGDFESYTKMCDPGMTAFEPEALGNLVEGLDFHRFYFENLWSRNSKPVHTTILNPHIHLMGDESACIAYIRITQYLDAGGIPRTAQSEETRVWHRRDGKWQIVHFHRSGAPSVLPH
O=c1ccc2ccc3occc3c2o1: 17%
OC1C[C@H]2CC[C@@H](C1)N2 (some centres unmarked): -15%
CN1C[C@H](CNC(=O)OCc2ccccc2)C[C@@H]2c3cccc4c3c(cn4C)C[C@H]21: -4%
COc1cccc2c1cc([N+](=O)[O-])c1c(C(=O)O)cc3c(c12)OCO3: 8%

Series 3 — concentration: 10 µM; quantity: inhibition
Compound: CC(=O)C1=C(C)N(c2cccc(C(F)(F)F)c2)C(=O)N[C@H]1c1ccc(C#N)nc1
Kappa-type opioid receptor (OPRK1, Homo sapiens, UniProt P41145); ligand displacement: -8.67%
Sodium-dependent noradrenaline transporter (SLC6A2, Homo sapiens, UniProt P23975); cell-free assay: -8.06%
Muscarinic acetylcholine receptor M1 (CHRM1, Homo sapiens, UniProt P11229); ligand displacement: -19.4%
Sodium-dependent dopamine transporter (SLC6A3, Homo sapiens, UniProt Q01959); cell-free assay: 1.88%

Further values, each from its own experiment — species: human; sample: microsomes or S9; concentration: 2 µM; time: 0.5 h
O=c1c2c(Cl)cccc2nc([C@@H]2CCCN2)n1-c1ccccc1  remaining compound: > 100%
N#Cc1cccc(N2C[C@@H](c3cccc(F)c3F)[C@@H]3[C@H]2C2CCN3CC2)n1  remaining compound: 36.5%

Repeated from above (series 1):
Nc1nc(N2CCNCC2)c2nc[nH]c2n1: 7.6%
